Measurements collected from several papers.
Protocols differ between the studies behind these lines. ± gives the spread as reported.
rep main protease: Replicase polyprotein 1ab, main protease (rep, Severe acute respiratory syndrome coronavirus 2, UniProt P0DTD1)
rep nsp14 N7-methyltransferase: Replicase polyprotein 1ab, nsp14 N7-methyltransferase (rep, Severe acute respiratory syndrome coronavirus 2, UniProt P0DTD1)

Compound | tested on | assay | test system | conditions | how to read | endpoint | value
Cc1nn(CC(=O)N2C[C@H]3C[C@@H]2CC[C@H]3NC(=O)C=C2C3CC4CC(C3)CC2C4)c(=O)n1C | rep main protease | enzyme activity, inhibitor |  | 5 µM, run 1 |  | inhibition | 10.8%
N#C[C@@]1(n2ccc(N)nc2=O)O[C@H](COP(=O)(O)OP(=O)(O)OP(=O)(O)O)[C@@H](O)[C@H]1O | Replicase polyprotein 1ab, nsp12 with nsp7/nsp8 (rep, Severe acute respiratory syndrome coronavirus 2, UniProt P0DTD1) | substrate |  | templating base G |  | kcat | 2.9 s⁻¹
O=c1c(O)c(-c2ccc(O)cc2O)oc2cc(O)cc(O)c12 | rep nsp14 N7-methyltransferase | N7-methyltransferase activity, inhibitor, Py-FLINT |  |  |  | Hill slope | 1.61 ± 0.12
C#Cc1cncc(C(=O)N2CCC3(CC2)CN(C(=O)[C@H]2CCC[C@@H]2O)Cc2ccccc2O3)c1 | rep main protease | enzyme activity, inhibitor |  | 5 µM, run 1 |  | inhibition | 9.3%
Cc1c(-c2ccnn2C)cc(C(=O)NCc2ccc(S(C)(=O)=O)cn2)c(=O)n1-c1cccc(C(F)(F)F)c1 | rep main protease | reporter gene (Gaussia luciferase), inhibitor |  | 20 µM |  | inhibition | 0.55%
CCc1cc(C(=O)N2CC[C@@H]([C@@H]3CCCN3C(=O)c3ccc4oc(N)nc4c3)C2)cc(=O)[nH]1 | rep main protease | enzyme activity, inhibitor |  | 5 µM, mean of runs |  | inhibition | 11.7%
Nc1ncnc2c1ncn2[C@@H]1O[C@H](Cn2cc(CNS(=O)(=O)c3ccccc3)nn2)[C@@H](O)[C@H]1O | rep nsp14 N7-methyltransferase | N7-methyltransferase activity, inhibitor, radioactive filter binding |  | 50 µM, 0.5 h, 30 °C, added: GpppAC4 RNA, SAM |  | remaining binding | > 50%
Cc1cccc(N2CC(C(=O)O)CC2=O)c1 (centres unmarked) | Replicase polyprotein 1ab, nsp13 helicase (rep, Severe acute respiratory syndrome coronavirus 2, UniProt P0DTD1) | binding, affinity selection mass spectrometry |  |  | relative to: other proteins in batch | log fold enrichment | -0.0519
CN1c2ccccc2C(=O)Nc2cnc(Nc3ccc(N4CCC(O)CC4)cc3)nc21 | rep main protease | viral replication, mKate2 reporter | SARS-CoV-2 | 20 µM |  | inhibition | 0.606%
CC(C)C[C@H](NC(=O)OCc1ccccc1)C(=O)N(C)N(C#N)CCC(N)=O | rep main protease | inhibitor, biochemical |  |  |  | kinact/Ki | 489 M⁻¹ s⁻¹
Nc1ncnc2c([C@@H]3N[C@H](CO)[C@@H](O)[C@H]3O)c[nH]c12 | Junin virus | viral replication | HeLa, Romero | 12.5 µM |  | inhibition | 0%
CC(C)=CCC/C(C)=C/COc1ccc2ccc(=O)oc2c1 | rep main protease | reporter gene (Gaussia luciferase), inhibitor | HEK293T | 20 µM |  | inhibition | 1.65%
O=C(c1cccc(-c2n[nH]c(=O)[nH]2)c1)N1CCO[C@H](c2cn(-c3cccnc3)nn2)C1 | rep main protease | enzyme activity, inhibitor |  | 5 µM, run 1 |  | inhibition | 4.5%
CCCCCCCC/C=C\CCCCCCCC(=O)NCCc1ccc(O)c(O)c1 | rep nsp14 N7-methyltransferase | N7-methyltransferase activity, inhibitor, Py-FLINT |  |  |  | Hill slope | 1.23 ± 0.1
CC[C@H](C)[C@H](NC(=O)[C@H](CC(C)C)NC(=O)[C@H](Cc1c[nH]c2ccccc12)NC(=O)[C@H](CCC(N)=O)NC(=O)[C@@H](NC(=O)[C@H](Cc1ccccc1)NC(=O)[C@H](C)NC(=O)[C@H](CCCCNC(=O)COCCOCCNC(=O)COCCOCCNC(=O)CC[C@H](NC(=O)CCCCCCCCCCCCCCCCCCC(=O)O)C(=O)O)NC(=O)[C@H](CCC(N)=O)NC(=O)[C@H](C)NC(=O)[C@@H](NC(=O)[C@H](CCCCN)NC(=O)[C@H](CC(=O)O)NC(=O)[C@H](CC(C)C)NC(=O)C(C)(C)NC(=O)[C@@H](NC(=O)[C@H](CO)NC(=O)[C@H](Cc1ccc(O)cc1)NC(=O)[C@H](CC(=O)O)NC(=O)[C@H](CO)NC(=O)[C@@H](NC(=O)[C@H](Cc1ccccc1)NC(=O)[C@@H](NC(=O)CNC(=O)[C@H](CCC(=O)O)NC(=O)C(C)(C)NC(=O)[C@@H](N)Cc1ccc(O)cc1)[C@@H](C)O)[C@@H](C)O)[C@@H](C)CC)[C@@H](C)CC)C(C)C)C(=O)N[C@@H](C)C(=O)NCC(=O)NCC(=O)N1CCC[C@H]1C(=O)N[C@@H](CO)C(=O)N[C@@H](CO)C(=O)NCC(=O)N[C@@H](C)C(=O)N1CCC[C@H]1C(=O)N1CCC[C@H]1C(=O)N1CCC[C@H]1C(=O)N[C@@H](CO)C(N)=O |  |  | healthy subjects, single ascending dose | 5.0 mg, baseline |  | serum amylase | 78.3 ± 16.3 U/L
O=C(O)/C(S)=C/c1c[nH]c2ccc(F)cc12 | rep main protease | viral replication, mKate2 reporter | SARS-CoV-2 | 20 µM |  | inhibition | -0.438%
O=C(NC[C@@H]1Cc2ccccc2CN1C(=O)[C@@H]1CCCS(=O)(=O)C1)c1cn[nH]c(=O)c1 | rep main protease | enzyme activity, inhibitor |  | 5 µM, run 2 |  | inhibition | 10.8%
CCOC(=O)COc1ccc(/C=C2\SC(=S)NC2=O)cc1OC | rep main protease | viral replication, mKate2 reporter | SARS-CoV-2 | 20 µM |  | inhibition | 0.362%
Cn1cnc(Cn2c(=O)[nH]/c(=N\c3cc4cn(C)nc4cc3Cl)n(Cc3cc(F)c(F)cc3F)c2=O)n1 |  |  | human, all renal function groups | oral, 375 mg |  | anaemia TEAE, Moderate severity | 0%
CC(C)(C)c1ccc(N(C(=O)CCl)C(C(=O)NC2CCCCC2)c2cccnc2)cc1 (centres unmarked) | rep main protease | inhibitor, ITC, irreversible model |  | 16.7 µM |  | kon | 390 ± 50 M⁻¹ s⁻¹
